Assay results of several laboratories.
Lines come from different studies, so protocols differ.
Organism: Enterococcus faecium

| Compound | method | strain | notes | with | reading | MIC |
| --- | --- | --- | --- | --- | --- | --- |
| c1ccc(OCCn2c(CNC34CC5CC(CC(C5)C3)C4)nc3ccccc32)cc1 |  | ATCC 19434 |  |  |  | > 128 µg/mL |
| C/C=C(\C)c1cc(O)c(C)c(OC(=O)c2c(C)c(Cl)c(O)c(Cl)c2O)c1 | broth microdilution | 36711 |  |  |  | 8 µg/mL |
| CC(=O)NC[C@H]1CN(c2ccc(N3CCOCC3)c(F)c2)C(=O)O1 |  | NR-32053 |  |  |  | 2.96 µM |
| CN[C@H](CC(C)C)C(=O)N[C@H]1C(=O)N[C@@H](CC(N)=O)C(=O)N[C@H]2C(=O)N[C@H]3C(=O)N[C@H](C(=O)N[C@H](C(=O)O)c4cc(O)cc(O)c4-c4cc3ccc4O)[C@H](O)c3ccc(c(Cl)c3)Oc3cc2cc(c3O[C@@H]2O[C@H](CO)[C@@H](O)[C@H](O)[C@H]2O[C@H]2C[C@](C)(N)[C@H](O)[C@H](C)O2)Oc2ccc(cc2Cl)[C@H]1O |  | ATCC 27270 |  |  |  | 1.5 µg/mL |
| CN[C@H](CC(C)C)C(=O)N[C@H]1C(=O)N[C@@H](CC(N)=O)C(=O)N[C@H]2C(=O)N[C@H]3C(=O)N[C@H](C(=O)N[C@H](C(=O)O)c4cc(O)cc(O)c4-c4cc3ccc4O)[C@H](O)c3ccc(c(Cl)c3)Oc3cc2cc(c3O[C@@H]2O[C@H](CO)[C@@H](O)[C@H](O)[C@H]2O[C@H]2C[C@](C)(N)[C@H](O)[C@H](C)O2)Oc2ccc(cc2Cl)[C@H]1O |  | Enterococcus faecalis | 40 strains |  |  | 0.68 µg/mL |
| C/C=C(\C)c1cc(O)c(C)c(OC(=O)c2c(C)cc(O)c(Cl)c2O)c1 | broth microdilution | 36235 |  |  |  | 16 µg/mL |
| CCCCN(C(=O)Nc1cc(-c2ccc(Cl)c(Cl)c2)sc1C(=O)O)c1ccccc1 |  | DSM 20477 |  | folic acid 10 µg/mL |  | 16 µM |
| C/C=C(\C)c1cc(OC(=O)c2c(O)c(C)c(O)c(Cl)c2/C(C)=C/C)c(C)c(O)c1C(=O)O | broth microdilution | 36711 |  |  |  | 32 µg/mL |
| Cc1ccc(CCC(=O)Nc2nnc(S(N)(=O)=O)s2)cc1 |  | NR-31912 |  |  |  | 0.184 µM |
| CCCCCCC#Cc1cncc(-c2nnc(SCc3ccc([N+](=O)[O-])o3)n2C2CC2)c1 |  | vancomycin-resistant |  |  | no activity at value | ≥ 20 µg/mL |
| CC(=O)NC[C@H]1CN(c2ccc(N3CCOCC3)c(F)c2)C(=O)O1 |  | -9, vancomycin-intermediate |  |  |  | 4 µg/mL |
| CCCCCCC#Cc1cncc(-c2nnc(SCc3ccc([N+](=O)[O-])o3)n2C)c1 |  | vancomycin-resistant |  |  | no activity at value | ≥ 20 µg/mL |
| N#Cc1ccc2[nH]c(CNCC34CC5CC(CC(C5)C3)C4)nc2c1 |  | ATCC 19434 |  |  |  | 64 µg/mL |
| CN[C@H](CC(C)C)C(=O)N[C@H]1C(=O)N[C@@H](CC(N)=O)C(=O)N[C@H]2C(=O)N[C@H]3C(=O)N[C@H](C(=O)N[C@H](C(=O)O)c4cc(O)cc(O)c4-c4cc3ccc4O)[C@H](O)c3ccc(c(Cl)c3)Oc3cc2cc(c3O[C@@H]2O[C@H](CO)[C@@H](O)[C@H](O)[C@H]2O[C@H]2C[C@](C)(N)[C@H](O)[C@H](C)O2)Oc2ccc(cc2Cl)[C@H]1O |  | strain -9, vancomycin-intermediate |  |  |  | 4 µg/mL |
| CCCCCCC#Cc1cncc(-c2nnc(SCc3ccc(Cl)c(F)c3)n2C)c1 |  | vancomycin-resistant |  |  | no activity at value | ≥ 20 µg/mL |
| C[N+](C)(C)CCCN |  | VanA VRE ATCC BAA-2317 | no LTA |  |  | > 800 µg/mL |
| CCCCCCC#Cc1cncc(-c2nnc(SCc3ccc(Cl)cc3)n2C2CC2)c1 |  | vancomycin-resistant |  |  | no activity at value | ≥ 20 µg/mL |
| C/C=C(\C)c1cc(OC(=O)c2c(C)c(Cl)c(O)c(Cl)c2O)c(C)c(O)c1C(=O)O | broth microdilution | 36235 |  |  |  | > 64 µg/mL |
| O=C(O)c1cn(C2CC2)c2cc(N3CCNCC3)c(F)cc2c1=O | broth microdilution |  |  |  |  | 0.125 µg/mL |
| CC1(C)S[C@@H]2[C@H](NC(=O)[C@H](N)c3ccccc3)C(=O)N2[C@H]1C(=O)O | broth microdilution | 36235 |  |  |  | > 64 µg/mL |
| FC(F)(F)Oc1ccc(OCCn2c(CNCC34CC5CC(CC(C5)C3)C4)nc3ccccc32)cc1 |  | ATCC 19434 |  |  |  | > 128 µg/mL |
| CN[C@H](CC(C)C)C(=O)N[C@H]1C(=O)N[C@@H](CC(N)=O)C(=O)N[C@H]2C(=O)N[C@H]3C(=O)N[C@H](C(=O)N[C@H](C(=O)O)c4cc(O)cc(O)c4-c4cc3ccc4O)[C@H](O)c3ccc(c(Cl)c3)Oc3cc2cc(c3O[C@@H]2O[C@H](CO)[C@@H](O)[C@H](O)[C@H]2O[C@H]2C[C@](C)(N)[C@H](O)[C@H](C)O2)Oc2ccc(cc2Cl)[C@H]1O | broth microdilution | 36711 |  |  |  | > 64 µg/mL |
| CC(C)(CN)CNCc1nc2ccccc2n1CCOc1ccccc1 |  | NCTC 7171 |  |  |  | 8 µg/mL |

A few entries again:
| Compound | method | strain | notes | with | reading | MIC |
| --- | --- | --- | --- | --- | --- | --- |
| CCCCCCC#Cc1cncc(-c2nnc(SCc3ccc([N+](=O)[O-])o3)n2C)c1 |  | vancomycin-resistant |  |  | no activity at value | ≥ 20 µg/mL |
| N#Cc1ccc2[nH]c(CNCC34CC5CC(CC(C5)C3)C4)nc2c1 |  | ATCC 19434 |  |  |  | 64 µg/mL |
| CN[C@H](CC(C)C)C(=O)N[C@H]1C(=O)N[C@@H](CC(N)=O)C(=O)N[C@H]2C(=O)N[C@H]3C(=O)N[C@H](C(=O)N[C@H](C(=O)O)c4cc(O)cc(O)c4-c4cc3ccc4O)[C@H](O)c3ccc(c(Cl)c3)Oc3cc2cc(c3O[C@@H]2O[C@H](CO)[C@@H](O)[C@H](O)[C@H]2O[C@H]2C[C@](C)(N)[C@H](O)[C@H](C)O2)Oc2ccc(cc2Cl)[C@H]1O |  | strain -9, vancomycin-intermediate |  |  |  | 4 µg/mL |
